Literature values, collected from citations in different studies.
Lines come from different studies, so protocols differ. Several values in a cell are separate wells, animals, samples, runs or records. Numbers after ± are the reported error.

| SMILES | target | test | test system | conditions | IC50 |
| --- | --- | --- | --- | --- | --- |
| CCC1SCC(=O)N1c1c(C#N)c2n(c1C(=O)Nc1ccccc1)CCC2 (stereo not drawn) | CDK2 | enzyme activity, inhibitor | – | – | 630 nM |
| CCCC[C@H]1C(=O)N(C)[C@@H](CCCC)C(=O)N[C@@H](CCCNC(=N)N)C(=O)N[C@H](C(=O)NCC(N)=O)CSCC(=O)N[C@@H](Cc2ccccc2)C(=O)N(C)[C@@H](C)C(=O)N[C@@H](CC(N)=O)C(=O)N2CCC[C@H]2C(=O)N[C@@H](Cc2c[nH]cn2)C(=O)N[C@@H](CC(C)C)C(=O)N(C)CC(=O)N[C@@H](Cc2c[nH]c3ccccc23)C(=O)N[C@@H](CO)C(=O)N[C@@H](Cc2c[nH]c3ccccc23)C(=O)N1C | PD-L1 | – | – | literature value | 146 nM |
| NS(=O)(=O)Oc1ccc2c3c(c(=O)oc2c1)CCC3 | steroid sulfatase | – | placental microsomes | – | 200 nM and ≥ 200 nM |
| CCn1c(SCC(=O)Nc2cccc(C(=O)/C=C/c3ccc(OC)cc3)c2)nc2ccccc2c1=O | BRAF V600E | kinase activity, inhibitor | – | – | 4600 nM |
| CSc1nc(-c2ccc(F)cc2)c(-c2ccnc(Nc3ccc(N)cc3)c2)[nH]1 | p38α MAPK | inhibitor | – | – | 17 nM |
| CCCCCCCCc1ccc(OCC(=O)COc2ccc3c(c2)cc(C(=O)O)n3CCN(C)C)cc1 | cPLA2α | inhibitor | – | – | > 10000 nM |
| Cc1onc(-c2ccc(Cl)o2)c1-c1ccccc1 | COX-2 | – | – | – | > 4000 nM |
| CCCc1scc(-c2cn[nH]c2)c1CC(NC1=NC(C)(C)Cc2cc(Cl)ccc21)C(=O)O (stereo not drawn) | BACE1 | AlphaScreen | – | – | 8 nM |
| COc1nc(-c2cc(C)c(NC(C)c3ccc(F)cc3)nn2)ccc1-n1cnc(C)c1 (stereo not drawn) | amyloid beta 42 | – | – | – | 7 nM |
| Cc1cc(=O)[nH]c(=O)n1Cc1cn(-c2c3ccccc3nc3ccccc23)nn1 | DNA topoisomerase IIβ | inhibitor | – | – | 520 nM |
| O=C(O)C1CC1C(=O)c1ccc(Cl)c(Cl)c1 (stereo not drawn) | kynurenine 3-monooxygenase | enzyme activity | – | – | 20 nM |
| COc1ccc(/C=C/C(=O)OCc2cn(-c3ccccc3)nc2-c2ccc(F)cc2)cc1 | HER2 | inhibitor | – | – | 6230 nM |
| CCc1ccc(CCNC(=O)c2c(O)c(O)cc3c(O)c(-c4c(C)cc5c(C(=O)NCCc6ccc(CC)cc6)c(O)c(O)cc5c4O)c(C)cc23)cc1 | Bcl-2 (human) | binding, fluorescence polarization | – | with: fluorescent BH3 Bid peptide | ~1000 nM |
| CC(=O)c1sc(N/N=C(\C)c2cccs2)nc1C | CDK2 | enzyme activity, inhibitor | – | – | 390 nM |
| O=C(Nc1ccc(-c2nc3ncccc3o2)cc1)c1ccccc1Br | Plasmodium falciparum ENT1 | [3H]adenosine uptake | PfENT1-expressing yeast | – | 10 ± 8.4 nM |
| CCOc1ccc(Cc2cc(C3OC(SC)C(O)C(O)C3OC3OC(C(=O)O)C(O)C(O)C3O)ccc2Cl)cc1 (stereo not drawn) | SGLT1 | – | – | – | > 10000 nM |
| N/N=C1\CCCc2nc3n[nH]c(O)c3cc21 | c-Met kinase | inhibitor | – | – | 0.39 nM |
| COC(=O)c1ccc2c(c1)NC(=O)/C2=C(\Nc1ccc2c(c1)CCN2C(=O)CN1CCOCC1)c1ccccc1 | PDGFR beta | inhibitor | – | – | 34 nM |

| SMILES | target | test | test system | conditions | IC50 |
| --- | --- | --- | --- | --- | --- |
| CNCCNC(=O)CN1C(=O)Cc2c([nH]c3ccc(Br)cc23)-c2ccc(Cl)cc21 | trypanothione synthetase Crithidia fasciculata | enzyme activity, inhibitor | – | – | 30 nM |
| COc1ccc(C2CC(c3ccc(OC)c(OC)c3)=NN2c2nc(-c3ccccc3)cs2)cc1 (stereo not drawn) | EGFR | inhibitor | – | – | 9 nM |
| Cc1ccccc1/C=C/c1nc2ccccc2c(=O)[nH]1 | Plasmodium falciparum ENT1 | [3H]adenosine uptake | PfENT1-expressing yeast | – | 3.9 ± 1.6 nM |
| COc1cnc(COc2ccc(F)c(F)c2)cc1-c1cc2c([nH]1)CCNC2=O | casein kinase 1 delta | enzyme activity, inhibitor | – | – | 40 nM |
| O=C(O)C1Nc2ccc(Br)cc2C2C=CCC12 (stereo not drawn) | macrophage migration inhibitory factor | tautomerase activity | – | – | 3400 nM |
| Cc1cc(CN2CCN(c3c(Br)cnc4[nH]c(-c5ccc(N6CCN(C)CC6)cc5)nc34)CC2)no1 | Aurora C kinase | inhibitor | – | – | 19 nM |
| Cc1nn(-c2ccc(S(N)(=O)=O)cc2)c(C)c1-c1nnc(SCC(=NO)c2ccccc2)n1-c1ccccc1 | cyclooxygenase-2 | inhibitor | – | – | 910 nM |
| O=CN1N=C(c2cccnc2)CC1c1c(-c2ccccc2)[nH]c2ccccc12 (stereo not drawn) | 15-lipoxygenase-1 | enzyme activity, inhibitor | – | – | 3840 nM |
| CCN(CC)C(=O)CCSc1nnc(COc2ccccc2)o1 | 15-lipoxygenase | inhibitor | – | – | 9430 ± 170 nM |
| CNC(=O)COc1ccc(-c2c(C#N)c(NC(=O)c3cccc(C[C@H](N)C(=O)O)c3)n3c(nc4ccccc43)c2C#N)cc1 | LAT1 | slowly reversible inhibitor | – | – | 18200 nM |
| CC[C@@H]1NC(=O)CNC(=O)[C@H](Cc2c[nH]c3ccccc23)NC(=O)[C@H](CC(=O)O)NC(=O)[C@H](CCC(N)=O)NC(=O)[C@H](Cc2c[nH]c3ccccc23)NC(=O)[C@H](C(C)C)NC(=O)[C@@H](NC(=O)[C@@H](NC(C)=O)[C@@H](C)CC)CSSC[C@@H](C(=O)N[C@H](C(N)=O)[C@@H](C)O)NC(=O)[C@H](CCCNC(=N)N)NC(=O)[C@H](Cc2c[nH]cn2)NC1=O | complement classical pathway | ELISA | – | – | 1500 nM |
| CCc1ccc(Cn2cc(-c3cc(-c4ccc(Br)cc4)nc(N)n3)c3ccccc32)cc1 | EGFR T790M human | inhibitor | – | – | 94 nM |
| N=C(N)SCc1ccccc1CSC(=N)N | DMT1 | – | – | – | ≥ 1000 nM |
| C[C@H](N)[C@H]1O[C@@H](O[C@@H]2[C@@H](O)[C@H](N)C[C@H](N)[C@H]2O[C@H]2O[C@H]([C@@H](C)O)[C@@H](O)[C@H](O)[C@H]2N)[C@H](O)[C@@H]1O | Escherichia coli ribosome | translation, inhibitor, refers to: firefly luciferase | Escherichia coli S30 lysate | – | 1100 ± 200 nM |
| CCCCCCCCCc1nc2ccccc2c(=O)n1CCN | PqsR, Pseudomonas aeruginosa | inhibitor | – | – | 9300 nM |
| Cn1cc(C(=O)C(=O)Nc2ccc(C(=O)N3CCCC3)cc2)c2ccccc21 | Plasmodium falciparum ENT1 | [3H]adenosine uptake | PfENT1-expressing yeast | – | 22.7 ± 7.2 nM |
| C/C=C/C#CC#C[C@@H](O)[C@@H](/C=C/CCCO)O[C@@H]1O[C@H](CO)[C@@H](O)[C@H](O)[C@H]1O | P2Y14 receptor | antagonist | – | – | 5800 nM |
| O=C(NS(=O)(=O)c1ccc(Br)cc1)c1cccc(C(=O)NS(=O)(=O)c2ccc(Br)cc2)n1 | COX-2 | enzyme activity, inhibitor | – | – | 5600 nM |
